# Measurements pooled from the literature.
# Numbers after ± are the reported error. Square brackets hold non-standard residues; d marks the D form. Where no end group is shown, it is not given here. Ends that are not written are not given here. No end group written: not given here.
# NUP82 C396S: NUP82 1-452 C396S (Saccharomyces cerevisiae, UniProt P40368)
# PRI1/PRI2 PRI1 1-409, PRI2 49-513 del382-384: PRI1/PRI2 PRI1 1-409, PRI2 49-513 del382-384 (Saccharomyces cerevisiae)
# B1: Nup98 732-880 (Mus musculus, UniProt Q6PFD9); sequence looked up; chain AGIVLTKVGYYTIPSMDDLAKITNEKGECIVSDFTIGRKGYGSIYFEGDVNLTNLNLDDIVHIRRKEVIVYVDDNQKPPVGEGLNRKAEVTLDGVWPTDKTSRCLIKSPDRLADINYEGRLEAVSRKQGAQFKEYRPETGSWVFKVSHF
# B2: RRP6 128-685 (Saccharomyces cerevisiae, UniProt Q12149); sequence looked up; chain RVEKPQLKFKSPIDNSESHPFIPLLKEKPNALKPLSESLRLVDDDENNPSHYPHPYEYEIDHQEYSPEILQIREEIPSKSWDDSVPIWVDTSTELESMLEDLKNTKEIAVDLEHHDYRSYYGIVCLMQISTRERDYLVDTLKLRENLHILNEVFTNPSIVKVFHGAFMDIIWLQRDLGLYVVGLFDTYHASKAIGLPRHSLAYLLENFANFKTSKKYQLADWRIRPLSKPMTAYARADTHFLLNIYDQLRNKLIESNKLAGVLYESRNVAKRRFEYSKYRPLTPSSEVYSPIEKESPWKILMYQYNIPPEREVLVRELYQWRDLIARRDDESPRFVMPNQLLAALVAYTPTDVIGVVSLTNGVTEHVRQNAKLLANLIRDALRNIKNTNEEATPIPSSETKADGILLETISVPQIRDVMERFSVLCNSNISKSRAKPVTNSSILLGKILPREEHDIAYSKDGLPNKVKTEDIRIRAQNFKSALANLEDIIFEIEKPLVVPVKLEEIKTVDPASAPNHSPEIDNLDDLVVLKKKNIQKKQPAKEKGVTEKDAVDYSKIP
# B3: CDKN1B 25-93 Y74E/Y88E/Y89E (Homo sapiens, UniProt P46527); sequence looked up; chain KPSACRNLFGPVDHEELTRDLEKHCRDMEEASQRKWNFDFQNHKPLEGKEEWQEVEKGSLPEFEERPPR
# B4: TREM2 Ig domain 19-134 R47H (Homo sapiens, UniProt Q9NZC2); sequence looked up; chain HNTTVFQGVAGQSLQVSCPYDSMKHWGRHKAWCRQLGEKGPCQRVVSTHNLWLLSFLRRWNGSTAITDDTLGGTLTITLRNLQPHDAGLYQCQSLHGSEADTLRKVLVEVLADPLD
# B5: Rad50 NBD 1-190/686-852 D804C/H830C (Thermotoga maritima, UniProt Q9X1X1); disulfide; chain MRPERLTVRNFLGLKNVDIEFQSGITVVEGPNGAGKSSLFEAISFALFGNGIRYPNSYDYVNRNAVDGTARLVFQFERGGKRYEIIREINALQRKHNAKLSEILENGKKAAIAAKPTSVKQEVEKILGIEHRTFIRTVFLPQGEIDKLLISPPSEITEIISDVFQSKETLEKLEKLLKEKMKKLENEISSGGAGGAGGSLEKKLKEMSDEYNNLDLLRKYLFDKSNFSRYFTGRVLEAVLKRTKAYLDILTNGRFDIDFDDEKGGFIIKDWGIERPARGLSGGERALISISLAMSLAEVASGRLDAFFIDEGFSSLCTENKEKIASVLKELERLNKVIVFITCDREFSEAFDRKLRITGGVVVNE
# B6: UBI4/POL30 Ub–PCNA fusion K29R/K48R/K63R/G76V/K127R/K164R (Saccharomyces cerevisiae); chain MQIFVKTLTGKTITLEVESSDTIDNVKSRIQDKEGIPPDQQRLIFAGRQLEDGRTLSDYNIQRESTLHLVLRLRGVMLEAKFEEASLFKRIIDGFKDCVQLVNFQCKEDGIIAQAVDDSRVLLVSLEIGVEAFQEYRCDHPVTLGMDLTSLSKILRCGNNTDTLTLIADNTPDSIILLFEDTKKDRIAEYSLKLMDIDADFLRIEELQYDSTLSLPSSEFSKIVRDLSQLSDSINIMITRETIKFVADGDIGSGSVIIKPFVDMEHPETSIKLEMDQPVDLTFGAKYLLDIIKGSSLSDRVGIRLSSEAPALFQFDLKSGFLQFFLAPKFNDEE
# B7: Clcf1 (Mus musculus, UniProt Q9QZM3); sequence looked up; chain LNRTGDPGPGPSIQKTYDLTRYLEHQLRSLAGTYLNYLGPPFNEPDFNPPRLGAETLPRATVNLEVWRSLNDRLRLTQNYEAYSHLLCYLRGLNRQAATAELRRSLAHFCTSLQGLLGSIAGVMATLGYPLPQPLPGTEPAWAPGPAHSDFLQKMDDFWLLKELQTWLWRSAKDFNRLKKKMQPPAASVTLHLEAHGF
# B8: BAK1 26-225 T52F (Arabidopsis thaliana, UniProt Q94F62); sequence looked up; chain NAEGDALSALKNSLADPNKVLQSWDAFLVTPCTWFHVTCNSDNSVTRVDLGNANLSGQLVMQLGQLPNLQYLELYSNNITGTIPEQLGNLTELVSLDLYLNNLSGPIPSTLGRLKKLRFLRLNNNSLSGEIPRSLTAVLTLQVLDLSNNPLTGDIPVNGSFSLFTPISFANTKLTPLPASPPPPISPTPPSPAGSNRITG
# B9: TFAM 43-245 C49S (Homo sapiens, UniProt Q00059); sequence looked up; chain SSVLASSPKKPVSSYLRFSKEQLPIFKAQNPDAKTTELIRRIAQRWRELPDSKKKIYQDAYRAEWQVYKEEISRFKEQLTPSQIMSLEKEIMDKHLKRKAMTKKKELTLLGKPKRPRSAYNVYVAERFQEAKGDSPQEKLKTVKENWKNLSDSEKELYIQHAKEDETRYHNEMKSWEEQMIEVGRKDLLRRTIKKQRKYGAEE
# B10: DIS3 1-1001 D171N/D551N (Saccharomyces cerevisiae, UniProt Q08162); chain MSVPAIAPRRKRLADGLSVTQKVFVRSRNGGATKIVREHYLRSDIPCLSRSCTKCPQIVVPDAQNELPKFILSDSPLELSAPIGKHYVVLDTNVVLQAIDLLENPNCFFDVIVPQIVLDEVRNKSYPVYTRLRTLCRDSDDHKRFIVFHNEFSEHTFVERLPNETINDRNNRAIRKTCQWYSEHLKPYDINVVLVTNDRLNREAATKEVESNIITKSLVQYIELLPNADDIRDSIPQMDSFDKDLERDTFSDFTFPEYYSTARVMGGLKNGVLYQGNIQISEYNFLEGSVSLPRFSKPVLIVGQKNLNRAFNGDQVIVELLPQSEWKAPSSIVLDSEHFDVNDNPDIEAGDDDDNNESSSNTTVISDKQRRLLAKDAMIAQRSKKIQPTAKVVYIQRRSWRQYVGQLAPSSVDPQSSSTQNVFVILMDKCLPKVRIRTRRAAELLDKRIVISIDSWPTTHKYPLGHFVRDLGTIESAQAETEALLLEHDVEYRPFSKKVLECLPAEGHDWKAPTKLDDPEAVSKDPLLTKRKDLRDKLICSIDPPGCVDINDALHAKKLPNGNWEVGVHIADVTHFVKPGTALDAEGAARGTSVYLVDKRIDMLPMLLGTDLCSLKPYVDRFAFSVIWELDDSANIVNVNFMKSVIRSREAFSYEQAQLRIDDKTQNDELTMGMRALLKLSVKLKQKRLEAGALNLASPEVKVHMDSETSDPNEVEIKKLLATNSLVEEFMLLANISVARKIYDAFPQTAMLRRHAAPPSTNFEILNEMLNTRKNMSISLESSKALADSLDRCVDPEDPYFNTLVRIMSTRCMMAAQYFYSGAYSYPDFRHYGLAVDIYTHFTSPIRRYCDVVAHRQLAGAIGYEPLSLTHRDKNKMDMICRNINRKHRNAQFAGRASIEYYVGQVMRNNESTETGYVIKVFNNGIVVLVPKFGVEGLIRLDNLTEDPNSAAFDEVEYKLTFVPTNSDKPRDVYVFDKVEVQVRSVMDPITSKRKAELLLK
# B11: MARK1 682-795 K761S/R764S (Homo sapiens, UniProt Q9P0L2); sequence looked up; chain GEPKERDKEEGKDSKPRSLRFTWSMKTTSSMDPNDMMREIRKVLDANNCDYEQKERFLLFCVHGDARQDSLVQWEMEVCSLPSLSLNGVRFKRISGTSIAFKNIASKIANELKL
# UniProt P46948, sequence (whole entry, unmodified, looked up): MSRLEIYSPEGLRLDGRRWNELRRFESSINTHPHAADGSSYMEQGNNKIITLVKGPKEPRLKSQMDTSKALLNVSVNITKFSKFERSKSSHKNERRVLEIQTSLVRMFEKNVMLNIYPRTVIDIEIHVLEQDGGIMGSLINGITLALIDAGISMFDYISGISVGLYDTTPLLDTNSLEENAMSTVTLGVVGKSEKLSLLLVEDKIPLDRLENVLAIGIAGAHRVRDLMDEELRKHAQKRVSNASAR
# UniProt P40151, sequence (whole entry, looked up): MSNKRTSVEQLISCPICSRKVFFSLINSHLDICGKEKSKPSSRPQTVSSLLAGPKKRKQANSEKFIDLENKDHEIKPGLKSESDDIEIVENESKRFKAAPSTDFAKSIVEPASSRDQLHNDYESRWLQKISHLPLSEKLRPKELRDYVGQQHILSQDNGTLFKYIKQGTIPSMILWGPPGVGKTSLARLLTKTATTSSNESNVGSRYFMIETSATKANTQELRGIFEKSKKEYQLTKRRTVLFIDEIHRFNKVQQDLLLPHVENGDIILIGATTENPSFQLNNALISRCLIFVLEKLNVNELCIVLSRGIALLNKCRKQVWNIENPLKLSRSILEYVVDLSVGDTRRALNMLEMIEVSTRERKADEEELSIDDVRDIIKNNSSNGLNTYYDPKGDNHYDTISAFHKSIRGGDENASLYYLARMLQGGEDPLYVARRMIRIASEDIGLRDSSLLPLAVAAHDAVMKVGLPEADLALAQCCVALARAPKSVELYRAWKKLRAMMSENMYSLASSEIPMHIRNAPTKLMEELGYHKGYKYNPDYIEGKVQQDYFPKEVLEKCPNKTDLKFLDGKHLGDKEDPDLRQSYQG
# UniProt P26992, sequence (whole entry, unmodified, looked up): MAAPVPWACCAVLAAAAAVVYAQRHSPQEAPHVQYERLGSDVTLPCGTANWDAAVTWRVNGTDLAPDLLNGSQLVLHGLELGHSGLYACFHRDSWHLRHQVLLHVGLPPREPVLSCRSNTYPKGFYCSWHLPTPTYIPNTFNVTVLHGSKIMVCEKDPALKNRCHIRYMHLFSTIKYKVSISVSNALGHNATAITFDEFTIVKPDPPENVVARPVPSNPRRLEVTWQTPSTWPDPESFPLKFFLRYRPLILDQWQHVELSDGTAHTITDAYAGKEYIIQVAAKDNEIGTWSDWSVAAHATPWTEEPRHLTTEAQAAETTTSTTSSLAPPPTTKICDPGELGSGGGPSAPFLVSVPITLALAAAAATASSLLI
# UniProt Q9UQ84, sequence (whole entry, unmodified, looked up): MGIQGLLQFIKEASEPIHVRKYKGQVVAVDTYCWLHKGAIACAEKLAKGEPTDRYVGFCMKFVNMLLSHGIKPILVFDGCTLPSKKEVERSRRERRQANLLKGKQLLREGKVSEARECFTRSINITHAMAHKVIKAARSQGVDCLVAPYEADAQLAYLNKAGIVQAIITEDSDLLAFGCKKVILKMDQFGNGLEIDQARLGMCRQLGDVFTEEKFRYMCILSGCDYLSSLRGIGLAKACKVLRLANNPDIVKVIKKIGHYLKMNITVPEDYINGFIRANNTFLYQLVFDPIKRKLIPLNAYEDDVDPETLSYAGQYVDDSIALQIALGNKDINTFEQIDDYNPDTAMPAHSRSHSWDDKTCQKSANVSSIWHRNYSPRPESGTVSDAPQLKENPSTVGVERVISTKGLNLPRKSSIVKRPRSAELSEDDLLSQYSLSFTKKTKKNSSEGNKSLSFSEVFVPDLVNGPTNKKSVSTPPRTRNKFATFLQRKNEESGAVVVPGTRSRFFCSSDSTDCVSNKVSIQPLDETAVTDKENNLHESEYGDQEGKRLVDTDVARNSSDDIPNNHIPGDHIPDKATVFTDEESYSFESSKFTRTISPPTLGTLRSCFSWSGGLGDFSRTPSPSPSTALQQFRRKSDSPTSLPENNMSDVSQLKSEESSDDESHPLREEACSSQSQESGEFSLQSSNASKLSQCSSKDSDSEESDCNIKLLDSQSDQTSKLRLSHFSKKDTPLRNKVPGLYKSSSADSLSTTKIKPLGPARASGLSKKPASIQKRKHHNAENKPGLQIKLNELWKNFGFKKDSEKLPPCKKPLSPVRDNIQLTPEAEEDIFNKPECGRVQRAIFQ
# UniProt O60656, sequence (whole entry, looked up): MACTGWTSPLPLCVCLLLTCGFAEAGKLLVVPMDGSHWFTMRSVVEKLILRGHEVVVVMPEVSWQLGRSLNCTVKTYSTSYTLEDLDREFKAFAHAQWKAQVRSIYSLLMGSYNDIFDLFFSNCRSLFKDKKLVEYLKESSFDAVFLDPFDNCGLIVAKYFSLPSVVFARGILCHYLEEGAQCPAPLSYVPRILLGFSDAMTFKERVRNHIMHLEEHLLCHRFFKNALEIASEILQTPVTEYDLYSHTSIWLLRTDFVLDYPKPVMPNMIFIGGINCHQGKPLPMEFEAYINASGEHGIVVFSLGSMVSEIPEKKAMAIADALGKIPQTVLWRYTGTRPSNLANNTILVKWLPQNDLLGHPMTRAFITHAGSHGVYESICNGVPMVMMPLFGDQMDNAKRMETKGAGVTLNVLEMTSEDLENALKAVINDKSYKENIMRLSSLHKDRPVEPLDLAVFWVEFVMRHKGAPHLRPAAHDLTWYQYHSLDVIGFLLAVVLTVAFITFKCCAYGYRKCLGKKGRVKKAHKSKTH
# UniProt Q14653, sequence (whole entry, looked up): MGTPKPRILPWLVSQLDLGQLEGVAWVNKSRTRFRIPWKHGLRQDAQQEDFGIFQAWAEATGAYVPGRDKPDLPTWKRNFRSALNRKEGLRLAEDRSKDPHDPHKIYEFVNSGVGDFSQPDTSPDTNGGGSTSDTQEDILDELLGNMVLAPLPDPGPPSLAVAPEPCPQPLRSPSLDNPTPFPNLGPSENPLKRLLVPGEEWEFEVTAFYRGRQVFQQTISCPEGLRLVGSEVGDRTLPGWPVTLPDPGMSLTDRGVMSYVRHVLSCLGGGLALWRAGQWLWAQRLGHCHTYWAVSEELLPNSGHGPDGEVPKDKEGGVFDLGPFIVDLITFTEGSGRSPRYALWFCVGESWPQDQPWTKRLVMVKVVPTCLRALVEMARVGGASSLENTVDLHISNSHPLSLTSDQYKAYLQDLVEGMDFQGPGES
# UniProt P02649, sequence (whole entry, looked up): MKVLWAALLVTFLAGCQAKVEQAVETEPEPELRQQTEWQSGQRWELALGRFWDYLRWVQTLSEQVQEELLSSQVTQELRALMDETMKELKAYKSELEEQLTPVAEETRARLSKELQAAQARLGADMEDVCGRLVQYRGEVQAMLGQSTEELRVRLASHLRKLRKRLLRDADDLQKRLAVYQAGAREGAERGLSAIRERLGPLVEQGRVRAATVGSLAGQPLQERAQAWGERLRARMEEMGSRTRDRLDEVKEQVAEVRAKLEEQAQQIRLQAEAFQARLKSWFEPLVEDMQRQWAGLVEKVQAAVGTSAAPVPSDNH
# UniProt Q02410, sequence (whole entry, unmodified, looked up): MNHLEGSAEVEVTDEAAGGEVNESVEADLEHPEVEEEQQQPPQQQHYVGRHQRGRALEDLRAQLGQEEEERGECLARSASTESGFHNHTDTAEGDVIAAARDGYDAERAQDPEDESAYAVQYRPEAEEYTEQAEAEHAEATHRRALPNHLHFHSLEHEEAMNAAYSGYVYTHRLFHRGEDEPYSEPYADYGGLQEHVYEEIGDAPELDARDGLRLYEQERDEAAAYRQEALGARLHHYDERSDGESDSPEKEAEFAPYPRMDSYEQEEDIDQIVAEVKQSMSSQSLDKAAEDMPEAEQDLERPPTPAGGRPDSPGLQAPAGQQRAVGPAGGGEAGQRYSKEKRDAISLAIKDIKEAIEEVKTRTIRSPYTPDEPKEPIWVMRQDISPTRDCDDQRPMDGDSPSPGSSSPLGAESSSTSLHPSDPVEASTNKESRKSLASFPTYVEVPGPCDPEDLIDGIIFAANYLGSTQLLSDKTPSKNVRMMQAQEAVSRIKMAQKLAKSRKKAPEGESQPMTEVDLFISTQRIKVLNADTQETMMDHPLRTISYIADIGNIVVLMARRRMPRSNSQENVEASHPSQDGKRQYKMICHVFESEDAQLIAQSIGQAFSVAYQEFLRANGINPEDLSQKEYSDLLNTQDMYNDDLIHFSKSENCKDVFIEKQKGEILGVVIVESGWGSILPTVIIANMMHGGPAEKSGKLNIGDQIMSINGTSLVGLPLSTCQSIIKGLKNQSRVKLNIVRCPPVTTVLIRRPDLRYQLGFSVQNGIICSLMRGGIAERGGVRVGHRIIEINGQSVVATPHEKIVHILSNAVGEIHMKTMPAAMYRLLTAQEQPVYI
# UniProt Q9X1X0, sequence (whole entry, unmodified, looked up): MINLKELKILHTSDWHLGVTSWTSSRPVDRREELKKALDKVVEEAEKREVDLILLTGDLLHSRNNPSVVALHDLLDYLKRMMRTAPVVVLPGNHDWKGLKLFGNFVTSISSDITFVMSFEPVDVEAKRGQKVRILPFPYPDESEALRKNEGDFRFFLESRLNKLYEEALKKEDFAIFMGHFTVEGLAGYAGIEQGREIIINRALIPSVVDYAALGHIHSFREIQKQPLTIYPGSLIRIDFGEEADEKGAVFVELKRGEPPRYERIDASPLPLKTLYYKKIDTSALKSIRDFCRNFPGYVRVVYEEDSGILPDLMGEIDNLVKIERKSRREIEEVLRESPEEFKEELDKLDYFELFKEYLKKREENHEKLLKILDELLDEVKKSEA
Substance,tested on,assay,system,setting,endpoint,value
ASYCKQRNIVWL (designed peptide),APBA1 PDZ-1 648-746 C654S/C742S (UniProt Q02410),ELISA,peptide,1 hour,binding,binds
B1 (Nup98 732-880),NUP82 C396S,SEC,,,binding,binds
B2 (RRP6 128-685),"Exo9 core (Saccharomyces cerevisiae, UniProt P46948)",reconstitution and purification,,,binding,binds
"UGT1A9 (Homo sapiens, UniProt O60656)",O=c1cc(-c2ccc(O)c(O)c2)oc2ccc(O)cc12,steady-state kinetics,,"pH 7.4, 37 °C",Vmax/Km,3450 µL/min/mg
"EXO1 (Homo sapiens, UniProt Q9UQ84)",CTC1/STN1/TEN1 2-1217 K240E/Q241E/K242E,pull-down,,,binding,binds
B3 (CDKN1B 25-93 Y74E/Y88E/Y89E),"CDK4 1-303 del45-47/G43E/G44E (Homo sapiens, UniProt P11802)",X-ray crystallography,,"pH 7.0, 22 °C",binding,binds
"ASSHLNK(Ac)GIK(Ac)QVYMSLPQ (GLUL 5-22 (Homo sapiens, UniProt P15104); also: biotinylated, place not given here; acetyl K11, acetyl K14; sequence looked up)","CRBN (Homo sapiens, UniProt Q96SW2)",pull-down,peptide,,binding,binds
B4 (TREM2 Ig domain 19-134 R47H),"APOE ApoE3 (Homo sapiens, UniProt P02649)",BLI,,,binding,binds
"ARTKQC (Histone H3.1 2-6 (Homo sapiens, UniProt P68431))","KDM5A 287-347 (Homo sapiens, UniProt P29375)",PI-SAMDI,peptide,,binding,binds
"KIF5A, Alexa 647 label (Mus musculus, UniProt P33175)","APC, SNAP-tag label (UniProt Q61315)",TIRF-M motility reconstitution,,,binding,binds
"ALQDLLRTLKSPSSPQQQQQVLNILKSNPQLMAAFIKQRTAKYVAN (CREBBP 2066-2111 (Homo sapiens, UniProt Q92793); sequence looked up)","IRF3 189-427, phosphorylated by TBK1 (Homo sapiens, UniProt Q14653)",SEC,,,binding,binds
B5,"sbcD 7-385 L7M/H94Q/F291S (Thermotoga maritima, UniProt Q9X1X0)",crystal structure,,,binding,binds
B6,"MGS1 (Saccharomyces cerevisiae, UniProt P40151)",pull-down,,,binding,binds
B7 (Clcf1),"CNTFR-Fc Fc fusion 23-342 R110Q/T174P/S237F/I287F/Y177H/K178N/T268A/D269A (Homo sapiens, UniProt P26992)",ELISA,,,binding,binds
"GRRYADMTSIFDFMLN (POL1 1453-1468 V1457A (Saccharomyces cerevisiae, UniProt P13382); sequence looked up)","PRI1/PRI2 PRI1 1-409, PRI2 49-513 del382-384",pull-down,peptide,"2 h, pH 7.0, 4 °C",binding,binds
B8 (BAK1 26-225 T52F),"HAESA/IDA HAESA ectodomain; IDA 15-621, hydroxyproline in IDA (Arabidopsis thaliana)",ITC,,"pH 5.0, 25 °C",binding,binds
B9 (TFAM 43-245 C49S),"POLRMT 105-end 105-1230 E555A (Homo sapiens, UniProt O00411)",crystal structure,,,binding,binds
B10 (DIS3 1-1001 D171N/D551N),RRP45/SKI6/RRP43/RRP46/RRP42/MTR3/RRP4/RRP40/CSL4 Exo9 core 1-305 (Saccharomyces cerevisiae),crystal structure,,,binding,binds
"GRRYVDMTSIFDAMLN (POL1 1453-1468 F1465A (Saccharomyces cerevisiae, UniProt P13382); sequence looked up)","PRI1/PRI2 PRI1 1-409, PRI2 49-513 del382-384",pull-down,peptide,"2 h, pH 7.0, 4 °C",binding,binds
B11 (MARK1 682-795 K761S/R764S),"MARK1 45-381 T215E (Homo sapiens, UniProt Q9P0L2)",crystal structure,,,binding,binds
Insulin human,,ELISA,"rat, ventral cortex","intranasal, 20 µg per nostril, 120 min",concentration,5.4 ± 1.4 pg/mg tissue
"fluorescein-SPT[pS]PSY[pS]PTS (POLR2A CTD peptide consensus heptads, 11-aa; N-fluorescein, pS4, pS8; fluorescein = fluorescein label (fluorescent) on the peptide N-terminus; pS = N[C@@H](COP(=O)(O)O)C(=O)O)","Rngtt 227-567 R330A (Mus musculus, UniProt O55236)",fluorescence polarisation,peptide,"pH 7.0, 23 °C",binding,binds
"{SUMO}-SSITKDMKGFKVVEVGLAMNTKKQIGDFFKNLNMAK (NUP159 1425-1460 (Saccharomyces cerevisiae, UniProt P40477); SUMO = SUMO protein tag (N-terminal fusion); sequence looked up)",NUP82 C396S,SEC,,,binding,binds
"DIS3 (Saccharomyces cerevisiae, UniProt Q08162)","Exo9 K132E/R206D/W278A (Saccharomyces cerevisiae, UniProt P46948)",reconstitution and purification,,,binding,binds

# Some of these lines once more:
Substance,tested on,assay,system,setting,endpoint,value
B10 (DIS3 1-1001 D171N/D551N),RRP45/SKI6/RRP43/RRP46/RRP42/MTR3/RRP4/RRP40/CSL4 Exo9 core 1-305 (Saccharomyces cerevisiae),crystal structure,,,binding,binds
B2 (RRP6 128-685),"Exo9 core (Saccharomyces cerevisiae, UniProt P46948)",reconstitution and purification,,,binding,binds
"fluorescein-SPT[pS]PSY[pS]PTS (POLR2A CTD peptide consensus heptads, 11-aa; N-fluorescein, pS4, pS8; fluorescein = fluorescein label (fluorescent) on the peptide N-terminus; pS = N[C@@H](COP(=O)(O)O)C(=O)O)","Rngtt 227-567 R330A (Mus musculus, UniProt O55236)",fluorescence polarisation,peptide,"pH 7.0, 23 °C",binding,binds
